Experimental data gathered from unrelated publications.
Lines come from different studies, so protocols differ.
Target: Serine/threonine-protein kinase Sgk3 (SGK3, Homo sapiens, UniProt Q96BR1)
One construct used (Q96BR1 1-496): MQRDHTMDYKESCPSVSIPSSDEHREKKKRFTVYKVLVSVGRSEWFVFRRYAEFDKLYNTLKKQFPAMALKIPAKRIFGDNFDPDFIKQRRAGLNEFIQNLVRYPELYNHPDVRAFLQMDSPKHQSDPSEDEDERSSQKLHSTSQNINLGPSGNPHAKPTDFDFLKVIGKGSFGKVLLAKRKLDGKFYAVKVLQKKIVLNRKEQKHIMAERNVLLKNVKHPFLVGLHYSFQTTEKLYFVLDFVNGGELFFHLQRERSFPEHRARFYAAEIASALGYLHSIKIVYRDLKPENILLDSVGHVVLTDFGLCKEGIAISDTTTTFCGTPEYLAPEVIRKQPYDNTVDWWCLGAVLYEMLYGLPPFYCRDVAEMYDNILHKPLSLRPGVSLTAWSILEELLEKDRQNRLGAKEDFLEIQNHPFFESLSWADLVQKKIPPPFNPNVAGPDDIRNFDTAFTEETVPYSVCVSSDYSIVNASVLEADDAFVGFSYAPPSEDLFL

CNc1cc(Oc2cc(C(=O)Nc3cc(N4CCN(C)CC4)cc(C(F)(F)F)c3)ccc2C)ncn1
inhibition (probe labelling, KiNativ; Huh-7, live cells; 1 µM, Lys1 site, peptide FYAVKVLQK): -81.5%

CC[C@@H]1[C@H](F)C(=O)N[C@@H]1COc1nccc2cc(C(N)=O)c(OC)cc12
inhibition (ATP-site probe binding, ActivX profiling; THP-1 cell lysate; 0.04 mM, Lys2 site): 6.7%

CC(C)[C@H](NC(=O)c1cc(-c2cnn3cc(-c4ccc(OCCN5CCCCC5)cc4)cnc23)cs1)C(F)(F)F
relative inhibition (radiometric kinase; 15 nM; reference: SGK3 over ULK1): 0.0455

COc1cc(F)ccc1-c1ncnc(Nc2cccc(C[S@](C)(=N)=O)c2)n1
remaining activity (kinase activity; 10 µM, together with: 10 µM ATP): 108%

Cc1cc(Nc2cc(N3CCN(C)CC3)nc(Sc3ccc(NC(=O)C4CC4)cc3)n2)[nH]n1
remaining activity (kinase activity, KinaseProfiler; 0.03 µM, species human; reference: control): 98%

CNc1ncc2c(/C=C/C(=O)N3CCC(OC)CC3)nn(Cc3cccc(C(F)(F)F)c3)c2n1
remaining activity (kinase activity, inhibitor; 1 µM; reference: untreated control): 96%

C=CC(=O)N1CCC(COCC(=O)N2CCN(c3nc(-c4cnc(N)nc4C(F)F)nc(N4CCOC[C@@H]4C)n3)CC2)CC1
remaining binding (KINOMEscan; 1 µM): 99%

COc1cc(-c2cncc3c2CN(C)Cc2cc(N4CCNCC4)ccc2-3)cc(OC)c1OC
remaining activity (kinase activity; 1 µM, human enzyme, together with: ATP 10 µM; reference: DMSO control): 108%

A few entries again:
COc1cc(F)ccc1-c1ncnc(Nc2cccc(C[S@](C)(=N)=O)c2)n1
remaining activity (kinase activity; 10 µM, together with: 10 µM ATP): 108%
